# Assay results of several laboratories.
# “And” joins repeats or separate records; there may be more than shown. ± marks the error that the study gave.
# GSK3B: Glycogen synthase kinase-3 beta (GSK3B, Homo sapiens, UniProt P49841)
# Chain of UniProt P49841 (whole entry, looked up): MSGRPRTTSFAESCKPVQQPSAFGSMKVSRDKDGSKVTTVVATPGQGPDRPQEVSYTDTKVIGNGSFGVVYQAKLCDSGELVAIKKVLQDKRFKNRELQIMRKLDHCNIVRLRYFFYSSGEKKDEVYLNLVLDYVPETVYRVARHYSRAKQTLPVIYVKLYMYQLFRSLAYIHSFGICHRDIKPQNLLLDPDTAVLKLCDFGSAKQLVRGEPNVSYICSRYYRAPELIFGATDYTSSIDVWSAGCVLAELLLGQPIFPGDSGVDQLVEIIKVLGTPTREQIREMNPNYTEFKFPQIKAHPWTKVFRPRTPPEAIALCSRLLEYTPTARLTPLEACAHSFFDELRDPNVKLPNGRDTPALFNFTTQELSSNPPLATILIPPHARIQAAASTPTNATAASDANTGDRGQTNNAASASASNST
# PARP1: Poly [ADP-ribose] polymerase 1 (PARP1, Homo sapiens, UniProt P09874)
# Chain of UniProt P09874 (whole entry, looked up): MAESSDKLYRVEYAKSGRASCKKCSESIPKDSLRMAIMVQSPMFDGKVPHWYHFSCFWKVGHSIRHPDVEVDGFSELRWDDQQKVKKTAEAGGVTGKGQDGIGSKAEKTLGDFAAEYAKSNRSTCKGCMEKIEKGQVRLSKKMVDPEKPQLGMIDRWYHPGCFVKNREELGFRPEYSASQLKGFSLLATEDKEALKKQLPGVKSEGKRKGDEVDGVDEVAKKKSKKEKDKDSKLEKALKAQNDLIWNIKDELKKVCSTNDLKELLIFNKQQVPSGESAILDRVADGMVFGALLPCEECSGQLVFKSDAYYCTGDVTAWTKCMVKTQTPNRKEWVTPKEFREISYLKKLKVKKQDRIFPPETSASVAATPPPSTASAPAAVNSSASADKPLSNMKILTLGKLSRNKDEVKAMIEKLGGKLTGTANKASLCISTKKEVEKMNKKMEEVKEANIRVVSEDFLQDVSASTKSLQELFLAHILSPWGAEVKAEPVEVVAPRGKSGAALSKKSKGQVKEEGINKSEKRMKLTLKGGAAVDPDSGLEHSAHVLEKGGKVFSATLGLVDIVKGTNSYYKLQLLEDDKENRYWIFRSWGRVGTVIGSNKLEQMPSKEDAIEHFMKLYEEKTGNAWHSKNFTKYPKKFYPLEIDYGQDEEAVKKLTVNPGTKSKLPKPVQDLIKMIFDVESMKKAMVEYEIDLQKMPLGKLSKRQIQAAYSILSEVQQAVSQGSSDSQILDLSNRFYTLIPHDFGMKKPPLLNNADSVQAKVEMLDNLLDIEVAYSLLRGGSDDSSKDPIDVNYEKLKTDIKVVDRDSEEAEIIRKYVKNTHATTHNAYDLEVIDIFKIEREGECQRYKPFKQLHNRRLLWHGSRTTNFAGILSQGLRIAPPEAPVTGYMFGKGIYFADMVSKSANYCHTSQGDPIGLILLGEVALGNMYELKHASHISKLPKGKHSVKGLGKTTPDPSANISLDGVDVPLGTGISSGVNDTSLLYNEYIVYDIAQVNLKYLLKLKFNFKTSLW
# CXCR4: C-X-C chemokine receptor type 4 (CXCR4, Homo sapiens, UniProt P61073)
# Chain of UniProt P61073 (whole entry, looked up): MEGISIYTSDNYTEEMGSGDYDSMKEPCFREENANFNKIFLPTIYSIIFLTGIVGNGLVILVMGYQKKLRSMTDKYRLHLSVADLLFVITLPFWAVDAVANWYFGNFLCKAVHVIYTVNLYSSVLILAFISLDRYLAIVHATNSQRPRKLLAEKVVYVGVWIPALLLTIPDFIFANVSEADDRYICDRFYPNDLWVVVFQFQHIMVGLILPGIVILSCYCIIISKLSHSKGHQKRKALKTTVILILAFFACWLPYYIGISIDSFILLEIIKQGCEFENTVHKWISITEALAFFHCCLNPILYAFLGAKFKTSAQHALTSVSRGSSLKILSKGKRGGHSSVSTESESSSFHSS
# CDC7 with DBF4: Cell division cycle 7-related protein kinase, with DBF4 (CDC7, Homo sapiens, UniProt O00311)
# Chain of UniProt O00311 (whole entry, looked up): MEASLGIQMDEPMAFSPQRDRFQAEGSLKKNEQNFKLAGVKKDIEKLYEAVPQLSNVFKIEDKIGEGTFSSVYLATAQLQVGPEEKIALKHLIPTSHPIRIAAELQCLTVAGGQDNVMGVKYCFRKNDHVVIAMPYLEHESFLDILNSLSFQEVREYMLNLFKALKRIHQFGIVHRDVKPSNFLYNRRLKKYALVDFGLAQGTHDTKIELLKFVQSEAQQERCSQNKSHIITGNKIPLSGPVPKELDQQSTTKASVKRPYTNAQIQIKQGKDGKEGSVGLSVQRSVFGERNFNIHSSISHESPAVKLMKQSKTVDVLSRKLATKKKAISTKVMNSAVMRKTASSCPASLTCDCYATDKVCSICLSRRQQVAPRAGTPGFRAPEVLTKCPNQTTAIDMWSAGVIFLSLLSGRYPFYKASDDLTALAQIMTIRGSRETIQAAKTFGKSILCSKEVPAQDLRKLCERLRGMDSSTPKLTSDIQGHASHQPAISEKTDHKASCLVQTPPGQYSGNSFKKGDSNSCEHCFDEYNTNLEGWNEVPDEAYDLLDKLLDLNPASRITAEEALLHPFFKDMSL
# ABCC1: Multidrug resistance-associated protein 1 (ABCC1, Homo sapiens, UniProt P33527)
# Chain of UniProt P33527 (whole entry, looked up): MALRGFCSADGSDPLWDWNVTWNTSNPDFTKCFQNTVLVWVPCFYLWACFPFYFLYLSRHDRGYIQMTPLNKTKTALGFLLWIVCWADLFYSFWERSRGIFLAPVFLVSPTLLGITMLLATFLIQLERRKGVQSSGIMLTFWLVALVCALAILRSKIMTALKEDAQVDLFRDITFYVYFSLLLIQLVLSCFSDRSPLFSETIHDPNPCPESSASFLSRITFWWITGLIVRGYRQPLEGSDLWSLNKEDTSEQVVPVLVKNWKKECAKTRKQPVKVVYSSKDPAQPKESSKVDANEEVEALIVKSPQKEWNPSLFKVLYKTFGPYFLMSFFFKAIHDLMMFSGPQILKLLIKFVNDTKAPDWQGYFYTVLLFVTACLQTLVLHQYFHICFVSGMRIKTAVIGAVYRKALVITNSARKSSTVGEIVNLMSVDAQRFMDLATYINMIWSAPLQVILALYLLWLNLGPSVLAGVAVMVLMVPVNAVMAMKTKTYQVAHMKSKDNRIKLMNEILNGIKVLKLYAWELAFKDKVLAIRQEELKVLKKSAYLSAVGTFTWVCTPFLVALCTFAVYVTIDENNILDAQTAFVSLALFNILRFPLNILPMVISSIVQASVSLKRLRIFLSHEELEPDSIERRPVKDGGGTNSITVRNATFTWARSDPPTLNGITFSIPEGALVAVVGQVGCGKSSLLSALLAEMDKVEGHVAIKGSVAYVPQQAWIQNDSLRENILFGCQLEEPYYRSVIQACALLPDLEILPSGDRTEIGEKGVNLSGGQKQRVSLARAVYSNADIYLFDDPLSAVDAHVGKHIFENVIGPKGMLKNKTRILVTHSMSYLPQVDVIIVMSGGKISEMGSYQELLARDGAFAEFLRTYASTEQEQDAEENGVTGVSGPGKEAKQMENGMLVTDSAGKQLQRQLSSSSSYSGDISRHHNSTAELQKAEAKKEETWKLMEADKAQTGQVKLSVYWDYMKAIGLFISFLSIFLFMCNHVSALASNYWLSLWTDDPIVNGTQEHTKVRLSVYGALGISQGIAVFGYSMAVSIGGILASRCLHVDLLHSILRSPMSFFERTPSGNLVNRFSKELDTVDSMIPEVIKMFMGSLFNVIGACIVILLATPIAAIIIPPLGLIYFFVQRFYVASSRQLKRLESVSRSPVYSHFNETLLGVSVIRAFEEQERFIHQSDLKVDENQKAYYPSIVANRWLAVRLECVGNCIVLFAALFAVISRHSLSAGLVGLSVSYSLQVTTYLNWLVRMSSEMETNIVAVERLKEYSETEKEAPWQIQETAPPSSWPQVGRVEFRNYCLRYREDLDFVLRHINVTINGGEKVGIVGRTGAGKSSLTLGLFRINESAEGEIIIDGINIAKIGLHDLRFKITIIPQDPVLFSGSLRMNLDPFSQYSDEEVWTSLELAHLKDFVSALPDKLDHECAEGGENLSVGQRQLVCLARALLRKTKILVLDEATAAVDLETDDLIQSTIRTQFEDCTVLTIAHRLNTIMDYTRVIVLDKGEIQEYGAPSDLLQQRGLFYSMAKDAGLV
# FAAH: Fatty-acid amide hydrolase 1 (FAAH, Homo sapiens, UniProt O00519)
# Chain of UniProt O00519 (whole entry, looked up): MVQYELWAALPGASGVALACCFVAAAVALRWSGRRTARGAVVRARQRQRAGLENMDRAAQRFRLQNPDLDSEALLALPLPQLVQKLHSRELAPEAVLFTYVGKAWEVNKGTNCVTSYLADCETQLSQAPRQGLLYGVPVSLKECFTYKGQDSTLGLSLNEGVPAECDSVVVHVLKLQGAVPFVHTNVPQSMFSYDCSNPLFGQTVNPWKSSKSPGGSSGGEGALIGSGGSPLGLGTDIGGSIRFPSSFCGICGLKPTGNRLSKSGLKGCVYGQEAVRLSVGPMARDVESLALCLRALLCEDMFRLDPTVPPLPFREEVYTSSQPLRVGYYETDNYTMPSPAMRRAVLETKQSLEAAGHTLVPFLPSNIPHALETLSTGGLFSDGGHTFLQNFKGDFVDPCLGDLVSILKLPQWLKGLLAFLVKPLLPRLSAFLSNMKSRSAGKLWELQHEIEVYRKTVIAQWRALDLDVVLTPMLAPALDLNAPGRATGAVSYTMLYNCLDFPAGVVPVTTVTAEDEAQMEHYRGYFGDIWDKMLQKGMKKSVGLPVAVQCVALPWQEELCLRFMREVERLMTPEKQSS
# CYP1A2: Cytochrome P450 1A2 (CYP1A2, Homo sapiens, UniProt P05177)
# Chain of UniProt P05177 (whole entry, looked up): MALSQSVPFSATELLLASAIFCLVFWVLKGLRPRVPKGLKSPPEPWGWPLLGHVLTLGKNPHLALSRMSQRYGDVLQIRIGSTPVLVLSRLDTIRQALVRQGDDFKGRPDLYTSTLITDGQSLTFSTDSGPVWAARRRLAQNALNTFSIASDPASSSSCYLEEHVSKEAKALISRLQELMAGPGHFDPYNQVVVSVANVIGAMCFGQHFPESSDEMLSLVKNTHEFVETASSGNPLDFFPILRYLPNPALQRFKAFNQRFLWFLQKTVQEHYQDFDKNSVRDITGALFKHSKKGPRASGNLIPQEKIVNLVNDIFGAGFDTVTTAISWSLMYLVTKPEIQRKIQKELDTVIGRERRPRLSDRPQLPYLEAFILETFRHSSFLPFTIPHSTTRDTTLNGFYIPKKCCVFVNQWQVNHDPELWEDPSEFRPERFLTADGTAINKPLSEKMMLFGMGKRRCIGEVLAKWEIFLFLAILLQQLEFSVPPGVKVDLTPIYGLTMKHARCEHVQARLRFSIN
Structure (SMILES),target,assay,test system,setting,IC50
COc1ccc(-c2cc(=O)c3c(OC)c([C@@H]4O[C@H](C(=O)O)[C@@H](O)[C@H](O)[C@H]4O)c(OC)cc3o2)cc1OC,GSK3B,"enzyme activity, inhibitor, ADP detection",,,237 µM
O=C(CCc1ccccc1)c1ccccc1OCC(O)CN1CCN(c2ccc(F)cc2)CC1 (centres unmarked),"ATP-dependent translocase ABCB1 (ABCB1, Homo sapiens, UniProt P08183, Q773R)",,,,0.04 µM
Cc1ccccc1NC(=N)Nc1ccccc1C,"Sigma non-opioid intracellular receptor 1 (Sigmar1, Mus musculus, UniProt O55242)",,,pH 8,0.13 ± 0.0138 µM
COc1cccc2cc(-c3nnc(SCC(=O)Nc4ccc(Cl)cc4)n3-c3ccccc3)oc12,fungal tyrosinase,"enzyme activity, inhibitor, dopachrome absorbance",,"pH 6.8, 37 °C, with: L-tyrosine substrate",4.88 ± 1.14 µM
NS(=O)(=O)c1ccc(NC(=O)CSc2nc3ccccc3c(=O)n2-c2ccccc2)cc1,PARP1,"enzyme activity, inhibitor, absorbance",,,0.352 µM
CCN(CC)Cc1ccc(S(=O)(=O)N(C)Cc2ccc(F)cc2)cc1,CXCR4,"binding, inhibitor, competition binding",MDA-MB-231,,11.8 µM
NC(=O)c1cccc2c1OC[C@H](CN1CCN(c3ncccn3)CC1)O2,PARP1,,,,> 5 µM
COc1cc2nc(NCc3ccc(CNCCCNC4CCCCCC4)cc3)nc(NC3CCNCC3)c2cc1OC,CXCR4,"ligand displacement, radioligand",,cell membranes,0.0784 µM
CS(=O)(=O)OC[C@H]1COc2c(cccc2C(N)=O)O1,PARP1,,,,> 5 µM
O=C(/C=C/c1ccc(O)cc1)CC(=O)/C=C/c1ccc(O)cc1,"Hsd3b1 (Rattus norvegicus, UniProt P22071)","enzyme activity, inhibitor",rat testicular microsomes,"lower bound from 100 µM screen, with: pregnenolone",< 100 µM
O=c1oc2c(O)c(O)cc3c(=O)oc4c(O)c(O)cc1c4c23,CDC7 with DBF4,"enzyme activity, inhibitor, ADP-Glo luminescence",,with: ATP 12.5 µM,0.77 µM and ~0.8 µM
NC(N)=S,"Urea transporter 2 (Rattus norvegicus, UniProt Q62668)","urea transport, inhibitor",MDCK expressing rat UT-A1,20 min,> 25000 µM
O=c1cc(N2CCOCC2)oc2c(OCc3ccccc3)cccc12,"Phosphatidylinositol 4,5-bisphosphate 3-kinase catalytic subunit beta isoform (PIK3CB, Homo sapiens, UniProt P42338, D862Q)","enzyme activity, inhibitor",,,0.2 µM
O=c1[nH]c(=O)c2cc(S(=O)(=O)Nc3ccc(-c4ccncc4)cc3)ccc2[nH]1,"N-acyl-phosphatidylethanolamine-hydrolyzing phospholipase D (Homo sapiens, UniProt Q6IQ20)",enzyme activity,,wild type,46.2 ± 1.6 µM
N=C1C=CC(=C(c2ccc(N)cc2)c2ccc(N)cc2)C=C1,CDC7 with DBF4,"enzyme activity, inhibitor, ADP-Glo luminescence",,with: ATP 12.5 µM,14.9 ± 4.66 µM
CC(Sc1nnc(Cc2c[nH]c3ccccc23)o1)C(=O)NCCc1ccccc1 (centres unmarked),alpha-glucosidase,enzyme activity,,with: p-nitrophenyl glucopyranoside,232.75 ± 0.17 µM
CC(C)NCc1ccc(C[C@@H]2NC(=O)[C@H](N(C)C(=O)c3ccc4ccccc4c3)NC(=O)[C@H](Cc3ccccc3)NC(=O)[C@H](N)CSSC[C@@H](C(=O)N[C@@H](Cc3ccc4ccccc4c3)C(N)=O)NC(=O)[C@H](Cc3ccccc3)NC2=O)cc1,"Somatostatin receptor type 3 (SSTR3, Homo sapiens, UniProt P32745)","ligand displacement, radioligand",,cell membranes,0.329 µM and 0.729 µM
O=C(ON1C(=O)C2CN(Cc3ccc(Oc4ccccc4)cc3)CCN2C1=O)N1CCC(c2ccccc2)CC1 (centres unmarked),"Phospholipase ABHD3 (Abhd3, Mus musculus, UniProt Q91ZH7)","inhibitor, competitive gel-based ABPP, measured: ABHD3","mouse, transfected HEK293T cell lysate",with: FP-rhodamine probe,0.13 µM
N[C@@H](Cn1cc(F)c(=O)[nH]c1=O)C(=O)O,"Glutamate receptor 3, S1S2 ligand-binding domain (Rattus norvegicus, UniProt P19492, del531-655/S657T/V656G)",,,,0.0062 ± 0.0014 µM
Clc1nc2n[nH]nc2nc1Cl,"Genome polyprotein, NS2B-NS3 protease (GP1, West Nile virus, UniProt Q9Q6P4)","enzyme activity, inhibitor",,"pH 8.0, with: 20 µM Pyr-RTKR-AMC",0.74 µM
[11CH3]Nc1ccc(-c2nc3ccc(O)cc3s2)cc1,"Microtubule-associated protein tau (MAPT, Homo sapiens, UniProt P10636)","ligand displacement, radioligand",,,≤ 0.324 µM and 0.324 µM
COc1ccc2nc(NCc3ccc(CNCCCNC4CCCCC4)cc3)nc(NC3CCNCC3)c2c1,CXCR4,"ligand displacement, radioligand",,cell membranes,~0.01 µM and 0.0087 µM
[Na+].[Na+].[Na+].[O]=[V]([O-])([O-])[O-],"Tyrosine-protein phosphatase non-receptor type 11 (PTPN11, Homo sapiens, UniProt Q06124)","enzyme activity, inhibitor, fluorescence",,,11.8 µM
O=C1c2ccccc2-c2nc3nnnn3nc21,"Proteasome Macropain subunit MB1 (PSMB5, Homo sapiens, UniProt P28074)",enzyme activity,,"with: Suc-LLVY-AMC substrate, ATP",> 30 µM
COCC(=O)O[C@]1(CCN(C)CCCc2nc3ccccc3[nH]2)CCc2cc(F)ccc2[C@@H]1C(C)C,"CatSper channel complex (Homo sapiens, UniProt Q7RTX7+Q86XQ3+Q8NEC5+Q96P56)","calcium influx, inhibitor",human sperm,with: progesterone 30 nM,6.76 µM
O=C(O)C(Cc1c[nH]nn1)[C@@H]1CCN[C@H]1C(=O)O (mixture of isomers),"AMPA receptor, rat",binding,cortical synaptosomes,with: [3H]-AMPA,> 100 µM
c1nc2c(NCC3CCC(CNCCCNC4CCCCC4)CC3)nc(N3CCNCC3)nc2[nH]1 (centres unmarked),CXCR4,"reporter gene, antagonist",,,5.51e-05 µM
[Mg+2],"Glutamate NMDA receptor; Grin1/Grin2a (Grin1/Grin2a, Rattus norvegicus, UniProt P35439+Q00959)",antagonist,,,26 µM
CCCN1CCC(c2cccc(S(C)(=O)=O)c2)CC1,"Cytochrome P450 2D6 (CYP2D6, Homo sapiens, UniProt P10635)","enzyme activity, inhibitor","human, liver microsomes","3 h, pH 7.4, with preincubation",3.9 µM
O=c1[nH]c2ccccc2n1C1CCN(CCCC(c2ccc(F)cc2)c2ccc(F)cc2)CC1,"USP46, with UAF1 (Homo sapiens, UniProt P62068)","deubiquitinase activity, inhibitor",,"no inhibition up to 114 µM, with: K63-linked diubiquitin",> 114 µM
OCl,Helix pomatia β-glucuronidase,enzyme activity,,"1 h, pH 7.0, 37 °C, with: p-nitrophenyl glucuronide",705 ± 41.4 µM
COc1c(F)cc(OCC2=C(C)C(=O)c3ccccc3C2=O)cc1F,"Thioredoxin reductase 1, cytoplasmic (TXNRD1, Homo sapiens, UniProt Q16881)","enzyme activity, inhibitor",,"pH 7.4, with preincubation",2 µM
CN1CCC2(CC1)c1ccccc1N(Cc1ccc(C(=O)NO)s1)C2c1ccc(Cl)cc1 (centres unmarked),"Histone deacetylase 8 (Schistosoma mansoni, UniProt A5H660)","enzyme activity, inhibitor, Fluor-de-Lys",,with: Fluor-de-Lys substrate 50 µM,0.4 ± 0.11 µM
O=C(Nc1cc(F)c(F)c(F)c1)c1cc(S(=O)(=O)N2CCOCC2)c(Cl)cc1Cl,"Lysophosphatidic acid receptor 4 (LPAR4, Homo sapiens, UniProt Q99677)","Ca2+ mobilization, antagonist",CHO,with: LPA at EC50,> 100 µM
O=C(CC1Cc2ccccc2C1)N[C@H](CN1CCCC1)[C@H](O)c1ccc2c(c1)OCCO2,"Ceramide glucosyltransferase (UGCG, Canis lupus familiaris, UniProt A0A8I3MXG6)","enzyme activity, inhibitor",MDCK homogenate,,0.027 µM
O=c1[nH]c2ccccc2n1C1CCN(CCCC(c2ccc(F)cc2)c2ccc(F)cc2)CC1,ABCC1,"transporter efflux, inhibitor",,,7.7 µM
CC(=O)c1ccc(NC(=O)Cn2c(=S)n(-c3ccccc3)c(=O)c3ccccc32)cc1,PARP1,enzyme activity,,,0.0644 µM
COc1cccc(Cn2cc(CNC(=O)OCc3cn(Cc4cccc(OC)c4)nn3)nn2)c1,FAAH,"enzyme activity, inhibitor, fluorescence",,cell membranes,0.0042 µM
O=C(NCc1ccc(F)cc1)C1CCN(S(=O)(=O)c2cc(Cl)cc(Cl)c2)CC1,"Na(+)/citrate cotransporter (Homo sapiens, UniProt Q86YT5)","citrate uptake, inhibitor",HepG2,"30 min uptake, no preincubation",3 µM
CC(=O)n1cc[nH]c1=S,"mbtI (Mycobacterium tuberculosis, UniProt P9WFX1)","enzyme activity, inhibitor, continuous fluorescence",,with: chorismate,> 200 µM
C#Cc1ccc2c(C)c(C)c(=O)oc2c1C,CYP1A2,"enzyme activity, inhibitor",,"6 min, pH 7.6",0.46 µM and 0.5 µM
CCCc1cc(OC)cc(O)c1C(=O)Oc1c(OC)cc(CCC)c(C(=O)O)c1O,"Histone lysine acetyltransferase CREBBP, KIX domain; with KID (Crebbp, Mus musculus, UniProt P45481)",fluorescence polarization,,,64 µM
C=CC(=O)N1CCC[C@@H](n2nc(-c3ccc(Oc4ccccc4)cc3)c3c(N)ncnc32)C1,"Equilibrative nucleoside transporter 1 (SLC29A1, Homo sapiens, UniProt Q99808)","transporter uptake, inhibitor, radiometric",,,4.5 µM
O=C(O)c1ccc2[nH]c(-c3ccc(OCc4ccc(COc5ccc(-c6nc7cc(C(=O)O)ccc7[nH]6)cc5)cc4)cc3)nc2c1,"Dihydrofolate reductase type 2 (Escherichia coli, UniProt P00383)","inhibitor, spectrophotometric kinetic",,"extrapolated, insoluble above 100 µM",200 µM
CN1CCN(C[C@H]2COc3c(cccc3C(N)=O)O2)CC1,PARP1,,,,> 5 µM
Cn1c(=O)c(=O)n(C)c2cc(S(=O)(=O)NNC(=O)CCl)ccc21,"Dipeptidyl peptidase 4 (DPP4, Homo sapiens, UniProt P27487)","enzyme activity, inhibitor, fluorescence",,,9.5e-05 µM
COc1ccc(C2=NN(C(=O)CCC(=O)O)C(c3cn(-c4ccccc4)nc3-c3ccc(C)cc3)C2)cc1 (centres unmarked),"Replication protein A 70 kDa DNA-binding subunit (RPA1, Homo sapiens, UniProt P27694)","protein-nucleic acid interaction, inhibitor, mobility shift",,,71.7 µM
O=C(O)c1cc2c(C(F)(F)F)cc(-c3ccccc3)cc2n1O,"L-lactate dehydrogenase B chain (LDHB, Homo sapiens, UniProt P07195)","inhibitor, NADH fluorescence",,"NADH competition, with: 1440 µM pyruvate, 40 µM NADH",123.8 ± 0.7 µM
COC(=O)C1=C(C)NC(C)=C(C(=O)OCCN(C)Cc2ccccc2)C1c1cccc([N+](=O)[O-])c1 (centres unmarked),ABCC1,"substrate efflux, inhibitor, flow cytometry",ABCC1-overexpressing SupT1-Vin cells,with: BODIPY-FL-vinblastine 500 nM,1.8 ± 1.4 µM
C#Cc1ccc2cc(-c3ccccc3)c(=O)oc2c1,CYP1A2,"enzyme activity, inhibitor",,"6 min, pH 7.6",3 µM
NC(=O)N1c2ccccc2C=Cc2ccccc21,"Sodium channel protein type 8 subunit alpha (SCN8A, Homo sapiens, UniProt Q9UQD0)","ion current, inhibitor, automated patch clamp",,held at V0.5 inactivation for 10 s,25.6 µM
O=C(NC1CCCCC1)OCc1cn(Cc2cccc(F)c2)nn1,FAAH,"enzyme activity, inhibitor, fluorescence",,cell membranes,0.18 µM
O=C(OCc1ccccc1)c1ccc(O)cc1,FAAH,"enzyme activity, inhibitor, fluorimetric",,"60 min preincubation, recombinant enzyme, with: OMP substrate 50 µM",0.28 ± 0.03 µM
O=C(/C=C/c1ccc(O)c(O)c1)O[C@@H]1C[C@](O)(C(=O)O)C[C@@H](O)[C@H]1O,"Catechol O-methyltransferase (COMT, Homo sapiens, UniProt P21964)",O-methylation,human liver cytosol,"mean over samples, with: 2-hydroxyestradiol 10 µM",1.3 ± 0.1 µM
COc1ccc(-c2cc(=O)c3c(OC)c([C@@H]4O[C@H](C(=O)NC56CC7CC(CC(C7)C5)C6)[C@@H](O)[C@H](O)[C@H]4O)c(OC)cc3o2)cc1OC,GSK3B,"enzyme activity, inhibitor, ADP detection",,,33.5 µM
COC(=O)/C=C/c1cc(O)ccc1O,"Vascular endothelial growth factor receptor 1 (FLT1, Homo sapiens, UniProt P17948)",,,,> 10 µM

# For quick reference, copied from above:
Structure (SMILES),target,assay,test system,setting,IC50
OCl,Helix pomatia β-glucuronidase,enzyme activity,,"1 h, pH 7.0, 37 °C, with: p-nitrophenyl glucuronide",705 ± 41.4 µM
O=c1cc(N2CCOCC2)oc2c(OCc3ccccc3)cccc12,"Phosphatidylinositol 4,5-bisphosphate 3-kinase catalytic subunit beta isoform (PIK3CB, Homo sapiens, UniProt P42338, D862Q)","enzyme activity, inhibitor",,,0.2 µM
N=C1C=CC(=C(c2ccc(N)cc2)c2ccc(N)cc2)C=C1,CDC7 with DBF4,"enzyme activity, inhibitor, ADP-Glo luminescence",,with: ATP 12.5 µM,14.9 ± 4.66 µM
O=c1oc2c(O)c(O)cc3c(=O)oc4c(O)c(O)cc1c4c23,CDC7 with DBF4,"enzyme activity, inhibitor, ADP-Glo luminescence",,with: ATP 12.5 µM,0.77 µM and ~0.8 µM
Cc1ccccc1NC(=N)Nc1ccccc1C,"Sigma non-opioid intracellular receptor 1 (Sigmar1, Mus musculus, UniProt O55242)",,,pH 8,0.13 ± 0.0138 µM
O=C(CC1Cc2ccccc2C1)N[C@H](CN1CCCC1)[C@H](O)c1ccc2c(c1)OCCO2,"Ceramide glucosyltransferase (UGCG, Canis lupus familiaris, UniProt A0A8I3MXG6)","enzyme activity, inhibitor",MDCK homogenate,,0.027 µM
CC(=O)c1ccc(NC(=O)Cn2c(=S)n(-c3ccccc3)c(=O)c3ccccc32)cc1,PARP1,enzyme activity,,,0.0644 µM
COc1cc2nc(NCc3ccc(CNCCCNC4CCCCCC4)cc3)nc(NC3CCNCC3)c2cc1OC,CXCR4,"ligand displacement, radioligand",,cell membranes,0.0784 µM
